Results collected from several papers.
Protocols differ between the studies behind these lines. “And” joins repeats or separate records; there may be more than shown. ± gives the spread as reported.

For O=C(O)/C=C/c1c[nH]cn1, “host cell number” read 1.02 ± 0.07 (HCT-8 infected with Cryptosporidium parvum; Hoechst nuclei count; 1 mM, 24 h; baseline: PBS).
For CC(=O)Oc1ccccc1C(=O)O, the beat rate was 45.6 min⁻¹ (human iPSC-derived cardiomyocytes; 10 µM).
CN(C)CC(=O)O: “host cell number” 0.995 ± 0.073 (HCT-8 infected with Cryptosporidium parvum; Hoechst nuclei count; 1 mM, 24 h; baseline: PBS).
CC(C)NCC(O)COc1cccc2ccccc12 (stereo not shown) — result for “Papp A to B”: 55.8 ×10⁻⁶ cm/s (MDCK-MDR1 cells; 5 µM, pH 7.4).
C[C@@H]1COCCN1c1nc(-c2cnc(N)c(C(F)(F)F)c2)nc2c1C[C@@H]1COCCN21 — result for “Papp B to A”: 137 ×10⁻⁶ cm/s (MDCK; 1 µM, 20 (unit not given)).
Cc1ncc(CO)c(CO)c1O: “host cell number” 0.997 ± 0.156 (HCT-8 infected with Cryptosporidium parvum; Hoechst nuclei count; 1 mM, 24 h; baseline: PBS).
For CN(CCc1ccc(Cl)c(Oc2cc(Cl)cc(C#N)c2)c1)C(=O)CCl, “fold increase in cytotoxicity” read 6 fold (MT2 T-cells, uninfected; concentration not given; baseline: non-methylated 2-chloroacetamide analogue).
Under “host cell number”, CC(O)C(=O)O (stereo not shown) is recorded as 0.988 ± 0.077 (HCT-8 infected with Cryptosporidium parvum; Hoechst nuclei count; 1 mM, 24 h; baseline: PBS).
With Cc1ccc2ccc(C#N)c(O)c2n1 the Papp was 2.9 ×10⁻⁶ cm/s (MDCK-II low-efflux (RRCK) cells; 1.5 h, apical to basal).
COc1ccc(Nc2cnnc3cc(-c4cnc(N5CCCN(C)CC5)nc4)ccc23)cc1Cl has a TC50 of 2.2 µM (B10R mouse macrophages; cytotoxicity).
For O=C(O)c1ccc(NS(=O)(=O)c2ccc(Cl)c(Cl)c2)cc1, the apparent permeability was 4 ×10⁻⁶ cm/s (RRCK cells; passive permeability).
COc1cnc(Nc2cnnc3ccc(-c4ccc(N5CCN(C)CC5)cc4)cc23)nc1 has a TC50 of 2.7 µM (B10R mouse macrophages; cytotoxicity).
With CC(C)C[C@H](NC(=O)[C@H](CCCNC(=N)N)NC(=O)CNC(=O)CNC(=O)[C@H](CCCNC(=N)N)NC(=O)CNC(=O)CNC(=O)CNC(=O)c1ccc2c(c1)C(=O)OC21c2ccc(O)cc2Oc2cc(O)ccc21)C(=O)N[C@@H](CO)C(=O)N[C@@H](Cc1ccc(O)cc1)C(=O)N[C@@H](CO)C(=O)N[C@@H](CCCNC(=N)N)C(=O)N[C@@H](CCCNC(=N)N)C(=O)N[C@@H](CCCNC(=N)N)C(=O)N[C@@H](Cc1ccccc1)C(=O)N[C@@H](CO)C(=O)N[C@H](C(=O)N[C@@H](CO)C(=O)N[C@H](C(=O)NCC(=O)N[C@@H](CCCNC(=N)N)C(N)=O)[C@@H](C)O)[C@@H](C)O the transport ratio was 14.6% (hCMEC/D3 monolayers; BBB permeability, Transwell, measured: CF-labelled compound; EGM-2 medium; concentration not given, 3 h, apical to basal; baseline: fluorescence added apically).
Cc1noc(C)c1Cn1cc(N2C(=O)CN(Cc3cccc(O)c3)C2=O)cn1: “aberrant cells without gaps” 1% (human blood lymphocytes; 296.6 µg/mL, 3 h).
For COc1cc(C=NNC(=O)c2nc3ccccc3s2)ccc1O, the cytotoxicity was 10.8% (BJ-1 fibroblasts; MTT; 100 µM, 48 h).
CNCC(=O)O — result for “host cell number”: 0.978 ± 0.054 (HCT-8 infected with Cryptosporidium parvum; Hoechst nuclei count; 1 mM, 24 h; baseline: PBS).
For C[C@@H](c1ncncc1F)[C@](O)(Cn1cncn1)c1ccc(F)cc1F, the mass recovery was 96 ± 7% (MDCK; 1 µM, 90 min, pH 6.5 apical, 7.4 basolateral, basolateral to apical).
CC(=O)Nc1ccc(O)cc1 has a viability of 61.6% (THLE-2, 3D culture; MTT; 100 µM, 72 h).
COc1ccc(C(=O)NCc2cc(O)c(O)c(Br)c2)cc1 gave a CC50 of over 800 µM (Vero-E6; CCK-8; 24 h).
CC(=O)Nc1cccc(-n2c(=O)n(C3CC3)c(=O)c3c(Nc4ccc(I)cc4F)n(C)c(=O)c(C)c32)c1 gave a viability of 0.8 and 0.496 and 0.657 and 0.943 and 0.528 and 0.926 (MeWo; resazurin; concentration not given, 72 h, unit not given; baseline: DMSO).
CC1(C)OB(c2cccc(CNS(=O)(=O)c3cc(C(=O)Nc4cc(F)c(F)c(F)c4)ccc3F)c2)OC1(C)C gave a CC50 of 6.06 ± 0.41 µM (HepAD38; CCK-8; 6 d).
With C/C=C(/C)C(=O)OC[C@H]1[C@@H](Cc2ccc(C(F)(F)F)cc2)CO[C@@H]1c1ccccc1 the viability was 85 ± 18% (HEK293/NF-κB-luc; CellTracker Green CMFDA; 20 µM, 4.5 h, serum-free medium; baseline: stimulated untreated cells).
For CCCC(CCC)NC(=O)c1ccc2c(c1)OCO2, “relative cell growth” read 100% (CHO-WBL; 0.021 mg/mL, 3 h, with rat liver S9; baseline: vehicle control).
The beat rate of O=C(O)CCCOc1ccc(F)cc1-c1cc(-c2ccccc2C(F)(F)F)n(-c2ccccc2)n1 is reported as 45.5 ± 1.8 min⁻¹ (human iPSC-derived cardiomyocytes; 0.2 µM).
CCn1c(=O)c2c(nc(/C=C/c3ccc(OC)c(OC)c3)n2C)n(CC)c1=O gave a mass recovery of 105 ± 17% (MDCK; 1 µM, 90 min, pH 7.4 apical, 7.4 basolateral, apical to basolateral).
COc1ccc([C@H]2OC[C@H](Cc3ccc(C(C)(C)C)cc3)[C@@H]2CO)cc1OC gave a viability of 104 ± 5% (HEK293/NF-κB-luc; CellTracker Green CMFDA; 20 µM, 4.5 h, serum-free medium; baseline: stimulated untreated cells).
For CC(=O)Nc1ccc(O)cc1, “Papp A to B” read 8.62 ×10⁻⁶ cm/s and 7.66 ×10⁻⁶ cm/s (MDCK; 1 µM, 90 min, pH 6.5 apical, 7.4 basolateral).
With CCCS(=O)(=O)Oc1ccc(C=NNC(=O)c2nc3ccccc3s2)cc1 the cytotoxicity was 52.6% (BJ-1 fibroblasts; MTT; 100 µM, 48 h).
Under “host cell number”, NCCS(=O)(=O)O is recorded as 0.998 ± 0.039 (HCT-8 infected with Cryptosporidium parvum; Hoechst nuclei count; 1 mM, 24 h; baseline: PBS).
The cytotoxicity of Cc1cc(C(=O)NC(C)(C)COc2cccc3c2C(N)=NS(=O)(=O)N3)cc(C)n1 is reported as 8% (human peripheral blood lymphocytes; CBPI, micronucleus test; 0.6 µg/mL, 4 h, with rat liver S9; baseline: vehicle).
COc1cc(CNC(=O)c2ccccc2C)cc(Br)c1OC gave a CC50 of over 800 µM (Vero-E6; CCK-8; 24 h).
For CCOC(=O)c1cccc(Cn2ccc3ccc(-c4ccc5ccn(Cc6cccc(C(=O)O)c6)c5c4)cc32)c1, the TC50 was 24.5 µM (MAGI-CCR5 cells; cytotoxicity; 48 h, 2% serum).
For CC(C)C[C@H](NC(=O)[C@H](CC(C)C)NC(=O)[C@H](CCCNC(=N)N)NC(=O)[C@H](CCCCN)NC(=O)[C@H](CCCNC(=N)N)NC(=O)[C@H](CC(C)C)NC(=O)[C@H](CCCCN)NC(=O)[C@H](CCCNC(=N)N)NC(=O)[C@H](CC(C)C)NC(=O)[C@H](CC(C)C)NC(=O)[C@H](CC(C)C)NC(=O)[C@H](CCCNC(=N)N)NC(=O)[C@H](CCCCN)NC(=O)[C@H](CCCNC(=N)N)NC(=O)[C@H](CC(C)C)NC(=O)[C@H](CCCCN)NC(=O)[C@H](CCCNC(=N)N)NC(=O)[C@H](CC(C)C)NC(=O)CNC(=O)CNC(=O)CNC(=O)c1ccc2c(c1)C(=O)OC21c2ccc(O)cc2Oc2cc(O)ccc21)C(N)=O, the transport ratio was 5.1% (hCMEC/D3 monolayers; BBB permeability, Transwell, measured: CF-labelled compound; EGM-2 medium; concentration not given, 1 h, apical to basal; baseline: fluorescence added apically).
O=S(=O)(NC1CCN(c2ncnc3c2nc(-c2ccccc2Cl)n3-c2ccc(Cl)cc2)CC1)c1ccc(F)c(F)c1 — result for “permeability A to B”: under 0.1% (MDCK-MDR1; 10 µM, 1 h, pH 7.4, 37 °C).
The viability of COc1cc2ncnc(Nc3ccc(Oc4ccccc4)cc3C)c2cc1OC.O=C(O)C(F)(F)F is reported as 0.883 fraction of control (A-375 (BRAF V600E); 3 µM, 72 h).
With CCS(=O)(=O)Oc1ccc(C=NNC(=O)c2nc3ccccc3s2)cc1 the cytotoxicity was 49.5% (BJ-1 fibroblasts; MTT; 100 µM, 48 h).
For Cc1cnc(Nc2ccc(OCCN3CCCC3)cc2)nc1Nc1cccc(S(=O)(=O)NC(C)(C)C)c1, the mass recovery was 63 ± 3% (MDCK; 1 µM, 90 min, pH 7.4 apical, 7.4 basolateral, apical to basolateral).
COC[C@@H](CC(C)C)NC(=O)c1ccc(C)c(C)c1 has a mitotic index of 10.9 (primary human lymphocytes; 55 µg/mL, 20 h).
O=C(O)/C=C/C(=O)O — result for “host cell number”: 0.962 ± 0.016 (HCT-8 infected with Cryptosporidium parvum; Hoechst nuclei count; 1 mM, 24 h; baseline: PBS).
CC(C)n1nccc1-c1ncccc1COc1cccc(O)c1C=O gave a mass recovery of 80 ± 13% (MDCK; 1 µM, 90 min, pH 7.4 apical, 7.4 basolateral, basolateral to apical).
Cc1ccc(C(=O)O)cc1: “host cell number” 0.982 ± 0.023 (HCT-8 infected with Cryptosporidium parvum; Hoechst nuclei count; 1 mM, 24 h; baseline: PBS).
With COc1cc2ncnc(Nc3ccc(Oc4ccccc4)c(C)c3C)c2cc1OC.Cl the viability was 0.87 fraction of control (MeWo; cell growth, resazurin; 1 µM, 72 h, together with: 0 nM trametinib; baseline: DMSO).
With O=C(CS(=O)(=O)O)Nc1nc2ccccc2s1 the Papp was 0.006 ×10⁻⁶ cm/s (MDCK-MDR1; MDR1 inhibited).

Repeated from above:
CNCC(=O)O — result for “host cell number”: 0.978 ± 0.054 (HCT-8 infected with Cryptosporidium parvum; Hoechst nuclei count; 1 mM, 24 h; baseline: PBS).
For O=C(O)/C=C/c1c[nH]cn1, “host cell number” read 1.02 ± 0.07 (HCT-8 infected with Cryptosporidium parvum; Hoechst nuclei count; 1 mM, 24 h; baseline: PBS).
For CC(=O)Oc1ccccc1C(=O)O, the beat rate was 45.6 min⁻¹ (human iPSC-derived cardiomyocytes; 10 µM).
